Experimental data pooled from the literature.
Parts stem from different laboratories: compare values within a part only. Values joined by “and” are separate records of one study, mostly repeats; a detail may differ.
Chain of UniProt O96017 (whole entry, looked up): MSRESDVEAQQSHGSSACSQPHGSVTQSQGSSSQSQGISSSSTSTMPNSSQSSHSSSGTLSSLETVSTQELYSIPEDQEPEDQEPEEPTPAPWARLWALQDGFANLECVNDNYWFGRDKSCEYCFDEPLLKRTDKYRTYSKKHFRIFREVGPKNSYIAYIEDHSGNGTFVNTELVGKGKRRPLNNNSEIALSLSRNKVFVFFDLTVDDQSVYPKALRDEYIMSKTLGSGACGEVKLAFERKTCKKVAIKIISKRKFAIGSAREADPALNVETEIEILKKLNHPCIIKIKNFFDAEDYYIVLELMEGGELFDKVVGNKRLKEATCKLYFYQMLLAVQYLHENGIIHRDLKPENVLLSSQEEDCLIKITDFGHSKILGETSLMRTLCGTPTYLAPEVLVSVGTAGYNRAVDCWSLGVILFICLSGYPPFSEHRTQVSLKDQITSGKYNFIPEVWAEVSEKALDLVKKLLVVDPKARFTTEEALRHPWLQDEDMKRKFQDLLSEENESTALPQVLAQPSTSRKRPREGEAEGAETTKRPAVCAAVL
Chain of UniProt P37023 (whole entry, looked up): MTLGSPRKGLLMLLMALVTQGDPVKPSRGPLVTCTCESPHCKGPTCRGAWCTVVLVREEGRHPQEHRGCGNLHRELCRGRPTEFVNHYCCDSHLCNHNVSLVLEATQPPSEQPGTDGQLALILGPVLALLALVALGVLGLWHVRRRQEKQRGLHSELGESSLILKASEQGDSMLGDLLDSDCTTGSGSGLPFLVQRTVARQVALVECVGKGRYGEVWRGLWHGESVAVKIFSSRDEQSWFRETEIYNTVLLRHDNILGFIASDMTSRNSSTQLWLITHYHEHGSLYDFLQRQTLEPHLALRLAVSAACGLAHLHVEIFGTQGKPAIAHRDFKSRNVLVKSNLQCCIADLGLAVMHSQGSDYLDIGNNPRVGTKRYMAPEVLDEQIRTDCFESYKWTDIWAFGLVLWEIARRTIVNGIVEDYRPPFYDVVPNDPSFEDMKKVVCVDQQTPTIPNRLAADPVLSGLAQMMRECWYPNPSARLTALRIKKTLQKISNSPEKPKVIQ
Chain of UniProt P54756 (whole entry, looked up): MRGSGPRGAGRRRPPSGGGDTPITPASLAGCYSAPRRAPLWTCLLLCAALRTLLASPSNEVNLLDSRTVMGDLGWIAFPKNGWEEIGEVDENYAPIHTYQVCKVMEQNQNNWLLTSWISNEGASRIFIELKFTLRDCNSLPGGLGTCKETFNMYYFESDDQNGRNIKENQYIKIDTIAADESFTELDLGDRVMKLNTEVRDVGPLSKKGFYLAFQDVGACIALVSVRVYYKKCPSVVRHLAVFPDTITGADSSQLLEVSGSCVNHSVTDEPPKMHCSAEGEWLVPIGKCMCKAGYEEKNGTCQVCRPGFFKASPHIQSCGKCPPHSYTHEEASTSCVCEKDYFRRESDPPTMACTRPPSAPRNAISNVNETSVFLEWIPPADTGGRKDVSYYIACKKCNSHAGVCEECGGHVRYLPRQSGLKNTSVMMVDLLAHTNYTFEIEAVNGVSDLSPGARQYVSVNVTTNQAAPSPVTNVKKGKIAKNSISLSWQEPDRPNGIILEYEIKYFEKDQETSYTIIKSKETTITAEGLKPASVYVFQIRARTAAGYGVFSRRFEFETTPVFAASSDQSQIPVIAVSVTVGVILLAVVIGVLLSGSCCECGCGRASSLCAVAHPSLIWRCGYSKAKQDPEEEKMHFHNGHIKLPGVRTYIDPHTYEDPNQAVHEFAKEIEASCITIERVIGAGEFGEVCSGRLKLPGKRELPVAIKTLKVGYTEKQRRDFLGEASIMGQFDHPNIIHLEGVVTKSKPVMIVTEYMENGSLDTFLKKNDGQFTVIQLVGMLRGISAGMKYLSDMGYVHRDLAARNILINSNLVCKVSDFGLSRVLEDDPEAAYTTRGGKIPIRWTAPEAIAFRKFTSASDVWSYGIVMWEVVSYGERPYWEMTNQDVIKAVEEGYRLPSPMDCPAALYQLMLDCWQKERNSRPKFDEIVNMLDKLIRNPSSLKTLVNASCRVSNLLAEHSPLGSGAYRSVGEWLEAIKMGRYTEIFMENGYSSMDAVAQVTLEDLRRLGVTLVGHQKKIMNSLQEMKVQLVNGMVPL
Chain of UniProt Q13555 (whole entry, looked up): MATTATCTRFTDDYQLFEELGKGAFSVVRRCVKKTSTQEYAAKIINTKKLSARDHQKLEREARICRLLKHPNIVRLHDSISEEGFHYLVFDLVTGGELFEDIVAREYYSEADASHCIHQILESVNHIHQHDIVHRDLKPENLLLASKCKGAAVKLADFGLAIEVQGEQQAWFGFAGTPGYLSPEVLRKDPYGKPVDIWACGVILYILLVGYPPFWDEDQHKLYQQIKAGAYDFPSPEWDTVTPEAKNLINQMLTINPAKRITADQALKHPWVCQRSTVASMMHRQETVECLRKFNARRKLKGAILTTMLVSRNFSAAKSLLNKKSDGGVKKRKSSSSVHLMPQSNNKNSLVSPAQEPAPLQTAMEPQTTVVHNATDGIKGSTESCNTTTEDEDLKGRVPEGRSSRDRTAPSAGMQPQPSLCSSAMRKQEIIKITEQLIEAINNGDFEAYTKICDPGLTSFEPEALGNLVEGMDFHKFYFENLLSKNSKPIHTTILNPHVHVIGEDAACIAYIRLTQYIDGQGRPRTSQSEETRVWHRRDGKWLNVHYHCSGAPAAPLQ
Chain of UniProt Q02156 (whole entry, looked up): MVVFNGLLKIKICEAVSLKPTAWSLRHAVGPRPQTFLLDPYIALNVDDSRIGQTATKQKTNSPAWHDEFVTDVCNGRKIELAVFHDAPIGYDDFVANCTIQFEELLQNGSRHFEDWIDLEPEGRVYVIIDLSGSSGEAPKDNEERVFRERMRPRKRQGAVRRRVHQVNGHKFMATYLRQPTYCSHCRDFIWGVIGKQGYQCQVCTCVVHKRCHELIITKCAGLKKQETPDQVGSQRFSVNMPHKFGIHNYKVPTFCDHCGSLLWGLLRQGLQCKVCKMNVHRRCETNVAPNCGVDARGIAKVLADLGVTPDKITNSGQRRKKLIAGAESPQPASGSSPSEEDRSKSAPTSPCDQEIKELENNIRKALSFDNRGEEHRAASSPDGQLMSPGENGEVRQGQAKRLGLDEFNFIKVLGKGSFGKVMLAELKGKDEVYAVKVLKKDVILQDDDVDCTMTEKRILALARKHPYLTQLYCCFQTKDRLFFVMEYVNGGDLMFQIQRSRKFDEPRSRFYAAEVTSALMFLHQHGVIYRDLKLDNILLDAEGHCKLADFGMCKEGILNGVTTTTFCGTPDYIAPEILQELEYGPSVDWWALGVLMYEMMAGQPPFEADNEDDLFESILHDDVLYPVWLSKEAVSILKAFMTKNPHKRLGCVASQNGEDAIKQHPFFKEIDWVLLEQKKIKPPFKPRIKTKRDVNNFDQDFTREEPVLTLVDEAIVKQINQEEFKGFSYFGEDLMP

Study 1
Target: Calcium/calmodulin-dependent protein kinase type II subunit alpha (CAMK2A, Homo sapiens, UniProt Q9UQM7)
Chain of UniProt Q9UQM7 (whole entry, looked up): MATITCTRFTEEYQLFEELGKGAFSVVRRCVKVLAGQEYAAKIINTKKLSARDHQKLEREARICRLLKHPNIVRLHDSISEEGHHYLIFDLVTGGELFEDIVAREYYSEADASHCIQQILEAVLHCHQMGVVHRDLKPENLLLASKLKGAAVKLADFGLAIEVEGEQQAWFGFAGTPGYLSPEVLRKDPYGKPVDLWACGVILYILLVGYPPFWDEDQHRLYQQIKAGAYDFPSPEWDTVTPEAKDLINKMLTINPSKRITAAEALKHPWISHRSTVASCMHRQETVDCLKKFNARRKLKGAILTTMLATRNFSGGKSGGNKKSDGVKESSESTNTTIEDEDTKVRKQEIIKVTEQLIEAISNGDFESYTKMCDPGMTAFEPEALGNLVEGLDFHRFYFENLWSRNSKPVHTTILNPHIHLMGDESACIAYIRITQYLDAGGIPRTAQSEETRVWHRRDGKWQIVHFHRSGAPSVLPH
Observed: enzyme activity
Action: inhibitor
Concentration: 10 µM
Structure (SMILES) | inhibition
N#Cc1ccc2c(c1)N(CCCN1CCC(O)CC1)c1ccccc1S2 | -10%
C[C@]1(Cn2ccnn2)[C@H](C(=O)O)N2C(=O)C[C@H]2S1(=O)=O | 3%
Oc1cc(O)c2c(c1)OC(c1ccc(O)c(O)c1)C(OC1(c3ccc(O)c(O)c3)Oc3cc(O)cc(O)c3C(O)C1O)C2 (stereo not shown) | -74%
CN(C)CC(=O)O | -2%
CC1(C)CC[C@]2(C(=O)O)[C@H](O)C[C@]3(C)C(=CC[C@@H]4[C@@]5(C)C[C@H](O)[C@H](O[C@@H]6O[C@H](CO)[C@@H](O)[C@H](O)[C@H]6O)C(CO)(CO)[C@@H]5CC[C@]43C)[C@@H]2C1 | 3%
C[C@H]1CC[C@@]2(OC1)O[C@H]1C[C@H]3[C@@H]4CC[C@@H]5C[C@@H](O)CC[C@]5(C)[C@H]4CC[C@]3(C)[C@H]1[C@@H]2C | -15%
C[C@@H]1CC[C@]2(C(=O)O)CC[C@]3(C)C(=CC[C@@H]4[C@@]5(C)C[C@@H](O)[C@@H](O)C(C)(C)[C@@H]5CC[C@]43C)[C@@H]2[C@]1(C)O | 2%
Cn1c(=O)c2[nH]c(Br)nc2n(C)c1=O | -2%
C[C@@H]1O[C@@H](OC[C@H]2O[C@@H](OCCc3ccc(O)c(O)c3)[C@H](O)[C@@H](OC(=O)/C=C/c3ccc(O)c(O)c3)[C@@H]2O)[C@H](O)[C@H](O)[C@H]1O | -0.15% and -0.17%

Study 2
SMILES: O=C(Nc1cnn(-c2csc(C(=O)NC3COC3)c2)c1)Nc1c(F)cccc1Cl
Observed: enzyme activity
Concentration: 5 µM
target | assay | how to read | remaining activity [%]
EPHA5 (Homo sapiens, UniProt P54756) |  | reference: untreated control | 92
EPHB4 (Homo sapiens, UniProt P54760) |  | reference: untreated control | 94.7
ABL2 (Homo sapiens, UniProt P42684) |  | reference: untreated control | 84.2
CAMK1 (Homo sapiens, UniProt Q14012) |  | reference: untreated control | 97.5
CAMK4 (Homo sapiens, UniProt Q16566) |  | reference: untreated control | 97.6
DDR1 (Homo sapiens, UniProt Q08345) | inhibitor |  | 88.9
EPHA7 (Homo sapiens, UniProt Q15375) |  | reference: untreated control | 89.8
Cyclin-dependent kinase 2, with cyclin A (CDK2, Homo sapiens, UniProt P24941) |  | reference: untreated control | 91.3
SIK3 (Homo sapiens, UniProt Q9Y2K2) |  | reference: untreated control | 93.3

Study 3
Compound: C=CCc1ccc(O)c(-c2ccc(O)c(CC=C)c2)c1
Observed: chloride current
Technique: whole-cell voltage clamp
ANO1 del476-501/F803I: Anoctamin-1 (ANO1, Homo sapiens, UniProt Q5XXA6, del476-501/F803I)
Chain of UniProt Q5XXA6 (whole entry, unmodified, looked up): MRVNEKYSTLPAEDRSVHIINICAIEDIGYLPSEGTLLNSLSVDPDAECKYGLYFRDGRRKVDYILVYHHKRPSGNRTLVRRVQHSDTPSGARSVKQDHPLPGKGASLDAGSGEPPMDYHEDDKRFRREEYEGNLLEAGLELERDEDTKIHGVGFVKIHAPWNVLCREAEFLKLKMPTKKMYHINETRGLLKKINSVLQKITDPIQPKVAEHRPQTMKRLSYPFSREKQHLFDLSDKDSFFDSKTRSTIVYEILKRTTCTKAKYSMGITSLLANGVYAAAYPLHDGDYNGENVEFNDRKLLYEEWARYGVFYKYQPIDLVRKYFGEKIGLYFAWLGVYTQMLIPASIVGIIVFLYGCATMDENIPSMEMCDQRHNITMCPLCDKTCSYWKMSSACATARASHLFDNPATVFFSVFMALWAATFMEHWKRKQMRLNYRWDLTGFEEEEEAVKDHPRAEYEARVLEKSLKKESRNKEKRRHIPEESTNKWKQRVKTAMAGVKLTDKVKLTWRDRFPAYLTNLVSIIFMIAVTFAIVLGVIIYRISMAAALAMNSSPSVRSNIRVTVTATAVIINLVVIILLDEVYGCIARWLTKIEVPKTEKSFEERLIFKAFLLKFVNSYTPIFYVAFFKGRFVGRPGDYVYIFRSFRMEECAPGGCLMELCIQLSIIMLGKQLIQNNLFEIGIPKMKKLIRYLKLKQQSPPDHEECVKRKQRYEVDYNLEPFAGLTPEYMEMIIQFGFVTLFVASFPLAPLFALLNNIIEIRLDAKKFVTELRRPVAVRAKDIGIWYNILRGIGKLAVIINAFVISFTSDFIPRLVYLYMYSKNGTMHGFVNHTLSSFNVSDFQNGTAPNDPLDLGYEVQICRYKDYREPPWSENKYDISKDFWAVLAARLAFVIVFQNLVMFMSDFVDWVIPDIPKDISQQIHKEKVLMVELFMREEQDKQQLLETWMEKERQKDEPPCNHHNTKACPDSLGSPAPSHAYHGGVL
ANO1 D383A/del476-501: Anoctamin-1 (ANO1, Homo sapiens, UniProt Q5XXA6, D383A/del476-501)
target | assay | conditions | IC50 [µM]
Anoctamin-1 (ANO1, Homo sapiens, UniProt Q5XXA6, del476-501/F646A) |  | membrane voltage 80 mV | 7.73
ANO1 del476-501/F803I | inhibitor | mutant F777I at 100 mV, together with: 300 nM Ca2+ | 8.87
ANO1 D383A/del476-501 |  | membrane voltage 100 mV | 4.95
Anoctamin-1 (ANO1, Homo sapiens, UniProt Q5XXA6, del476-501/M544A) |  | membrane voltage 60 mV | 3.74
ANO1 D383A/del476-501 |  | membrane voltage -80 mV | 15.8
Anoctamin-1 (ANO1, Homo sapiens, UniProt Q5XXA6, del476-501/F628Y) | inhibitor | mutant F602Y | 22.6
Anoctamin-1 (ANO1, Homo sapiens, UniProt Q5XXA6, del476-501/F807I) | inhibitor | mutant F781I | 7.5
ANO1 del476-501/F803I | inhibitor | mutant F777I | 8.87
Anoctamin-1 (ANO1, Homo sapiens, UniProt Q5XXA6, del476-501/F807W) | inhibitor | 80 mV holding voltage | 10.8

Study 4
SMILES: O=C1NC(c2ccccn2)Sc2ccccc21 (stereo not shown)
Concentration: 1 µM
target | assay | remaining binding
CAMK2G (Homo sapiens, UniProt Q13555) | cell-free assay, competition with immobilised ligand | 98%
ALK (Homo sapiens, UniProt Q9UM73, L1196M) | cell-free assay, competition with immobilised ligand | 97%
KIT (Homo sapiens, UniProt P10721, V559D) | cell-free assay, competition with immobilised ligand | 100%
FRK (Homo sapiens, UniProt P42685) | cell-free assay, competition with immobilised ligand | 100%
CHEK2 (Homo sapiens, UniProt O96017) | cell-free assay, competition with immobilised ligand | 100%
ULK2 (Homo sapiens, UniProt Q8IYT8) | cell-free assay, competition with immobilised ligand | 76%
Tyrosine-protein kinase ABL1, phosphorylated (ABL1, Homo sapiens, UniProt P00519, H396P) | cell-free assay, competition with immobilised ligand | 84%
MUSK (Homo sapiens, UniProt O15146) | cell-free assay, competition with immobilised ligand | 90%
eIF-2-alpha kinase GCN2, C-terminal kinase domain (EIF2AK4, Homo sapiens, UniProt Q9P2K8, S808G) | cell-free assay, competition with immobilised ligand | 42%
MYLK3 (Homo sapiens, UniProt Q32MK0) | cell-free assay, competition with immobilised ligand | 100%
CDC42BPG (Homo sapiens, UniProt Q6DT37) | competition binding | 80%
ACVRL1 (Homo sapiens, UniProt P37023) | cell-free assay, competition with immobilised ligand | 70%
IKBKB (Homo sapiens, UniProt O14920) | cell-free assay, competition with immobilised ligand | 100%
LRRK2 (Homo sapiens, UniProt Q5S007) | cell-free assay, competition with immobilised ligand | 93%
RIOK1 (Homo sapiens, UniProt Q9BRS2) | cell-free assay, competition with immobilised ligand | 80%
DCLK1 (Homo sapiens, UniProt O15075) | cell-free assay, competition with immobilised ligand | 77%
MAPK1 (Homo sapiens, UniProt P28482) | cell-free assay, competition with immobilised ligand | 89%
FLT3 (Homo sapiens, UniProt P36888, F691L/ITD) | cell-free assay, competition with immobilised ligand | 100%
CDKL2 (Homo sapiens, UniProt Q92772) | cell-free assay, competition with immobilised ligand | 76%
CAMK1D (Homo sapiens, UniProt Q8IU85) | cell-free assay, competition with immobilised ligand | 82%
TESK1 (Homo sapiens, UniProt Q15569) | cell-free assay, competition with immobilised ligand | 100%
PRKCQ (Homo sapiens, UniProt Q04759) | cell-free assay, competition with immobilised ligand | 76%
PRKCE (Homo sapiens, UniProt Q02156) | cell-free assay, competition with immobilised ligand | 96%
CDK18 (Homo sapiens, UniProt Q07002) | cell-free assay, competition with immobilised ligand | 93%
ZAP70 (Homo sapiens, UniProt P43403) | cell-free assay, competition with immobilised ligand | 90%

For quick reference, copied from above (study 4):
target | assay | remaining binding
ALK (Homo sapiens, UniProt Q9UM73, L1196M) | cell-free assay, competition with immobilised ligand | 97%
MUSK (Homo sapiens, UniProt O15146) | cell-free assay, competition with immobilised ligand | 90%
PRKCQ (Homo sapiens, UniProt Q04759) | cell-free assay, competition with immobilised ligand | 76%
